# Published values collected from several papers.
# ± gives the spread as reported.
# B1: UGT1A9 (Homo sapiens, UniProt O60656); chain GKLLVVPMDGSHWFTMRSVVEKLILRGHEVVVVMPEVSWQLGRSLNCTVKTYSTSYTLEDLDREFKAFAHAQWKAQVRSIYSLLMGSYNDIFDLFFSNCRSLFKDKKLVEYLKESSFDAVFLDPFDNCGLIVAKYFSLPSVVFARGILCHYLEEGAQCPAPLSYVPRILLGFSDAMTFKERVRNHIMHLEEHLLCHRFFKNALEIASEILQTPVTEYDLYSHTSIWLLRTDFVLDYPKPVMPNMIFIGGINCHQGKPLPMEFEAYINASGEHGIVVFSLGSMVSEIPEKKAMAIADALGKIPQTVLWRYTGTRPSNLANNTILVKWLPQNDLLGHPMTRAFITHAGSHGVYESICNGVPMVMMPLFGDQMDNAKRMETKGAGVTLNVLEMTSEDLENALKAVINDKSYKENIMRLSSLHKDRPVEPLDLAVFWVEFVMRHKGAPHLRPAAHDLTWYQYHSLDVIGFLLAVVLTVAFITFKCCAYGYRKCLGKKGRVKKAHKSKTH
Substance,tested on,test,system,setting,scale,endpoint,result
Relaxin,RXFP1 and RXFP2,agonist,,,,EC50,1.05 ± 0.21 nM
CS(=O)(=O)NCC1CCCN(c2ncnc3ccc(C(F)(F)F)cc23)C1 (centres unmarked),human TXNIP promoter,"reporter gene, dual luciferase",INS-1 transfected,"1 µM, 24 h",,inhibition,~70%
Cc1ccc(N2C(=O)C(O)=C(C(=O)c3ccc(Cl)cc3)C2c2cccc(F)c2)cc1Br (centres unmarked),human uPAR,cell adhesion to vitronectin,HEK293 expressing uPAR,"25 µM, added: uPA",,inhibition,60%
Tumor necrosis factor alpha,potassium channels (human),whole-cell patch clamp,A549,"concentration not given, holding potential -100 mV, added: amiloride 10 to 100 µM, TEA 10 mM",,TEA-sensitive potassium current share,6.9 ± 1.8%
DPRL,HPC4 antibody (mouse),"binding, yeast display flow cytometry",peptide,"concentration not given, added: 100 nM HPC4",,cells bound,< 1%
Nc1nc(-c2ccc(OC(F)(F)F)cc2)cs1,"MeAIB/glutamine transporter, rat",MeAIB uptake,"hippocampal neurons, rat","20 µM, added: [14C]MeAIB 23.4 µM",,inhibition,> 90%
NC[C@H](N)C(=O)O,ASCT2,"anion current, substrate",HEK293 transfected,"pH 7.40, 0 mV",,Km,560 ± 70 µM
"Ac-DNCPFHYNP-NH2 (N-acetyl, C-amide)",mouse neutrophil elastase,,"peptide, wild type neutrophil lysate","1.25 or 2.5 mM, 30 min preincubation, pH 8.0, 37 °C",,elastase activity,no effect
B1 (UGT1A9),O=[N+]([O-])c1ccc(O)cc1,steady-state kinetics,,"pH 7.4, 37 °C",,Km,80.6 µM
C[C@@H]1C[C@H]2[C@@H]3CCC4=CC(=O)C=C[C@]4(C)[C@@]3(F)[C@@H](O)C[C@]2(C)[C@@]1(O)C(=O)CO,caspase-3 mouse,activity-based probe,"mouse, thymus","intravenous, 50 nmol, probe 2 h before sacrifice, added: dexamethasone 50 mg/kg intraperitoneal",,onset time of caspase-3 activity,6 h
KRRQTSMTDFYHSKRRLIFSGGSGGSGGSGGSGGSGGSKRRQTSMTDFYHSKRRLIFS (divalent),"PCNA trimer, human","complex formation, gel filtration",,"concentration not given, pH 7.2",,molecular weight,~149 kDa
Nc1nc2c(nc(Br)n2[C@@H]2O[C@@H]3COP(=O)(O)O[C@H]3[C@H]2O)c(=O)[nH]1,cGMP antibody,non-acetylated cGMP EIA,,,,EC50,1.83 nM
"Ac-DNCQYVYNV-NH2 (N-acetyl, C-amide)",mouse cathepsin G,inhibitor,"peptide, wild type neutrophil lysate","1.25 mM, 30 min preincubation, pH 8.0, 37 °C, added: N-Suc-AAPF-pNA 1 mM",,inhibition,54%
O=C1Nc2ccc(Cl)cc2[C@@](C#CC2CC2)(C(F)(F)F)O1,GABAA receptor α4β2γ2,"current potentiation, positive allosteric modulator, whole-cell patch clamp",,added: GABA EC30,,EC50,5900 ± 1300 nM
human clusterin,amyloid beta 1-40 oligomers from aggregation,,,"10 to 20 nM, 21 °C",,persistence of Aβ complexes,> 50 h
KETKPLVHPNKNRTRGPRRKLPTRV,"actin, rabbit skeletal muscle",pyrene actin polymerization,peptide,"concentration not given, peptide without capping protein, added: 1 µM actin, 20% pyrene",baseline: actin alone,relative polymerization rate,0.97
"Ac-DNCPYVPNA-NH2 (N-acetyl, C-amide)",mouse neutrophil elastase,,wild type neutrophil lysate,"1.25 or 2.5 mM, 30 min preincubation, pH 8.0, 37 °C",,elastase activity,no effect
CC1=C[C@H](O/C=C2/C(=O)O[C@@H]3c4ccccc4C[C@H]23)OC1=O,SMXL7-YFP (Arabidopsis thaliana),"confocal microscopy, measured: nuclear SMXL7-YFP",Nicotiana benthamiana epidermal cells,"10 µM, 120 min, co-expressed AtD14-mCherry",baseline: mock,reduction of SMXL7-YFP level,~50%
CC(C)(C)c1cc(C(C)(C)C)c(NC(=O)c2c[nH]c3ccccc3c2=O)cc1O,CFTR S549R human,"short-circuit current, potentiator",CFBE,"14.44 µM, added: forskolin 20 µM",baseline: PKA-activated wild type,CFTR activity,35.6 ± 4.2%
CCNc1nc(Cl)nc(NC(C)C)n1,PDE4 (rat),"cAMP accumulation, inhibitor",primary pituitary cells,37 °C,,EC50,5000 to 6000 nM
VDPRLI,HPC4 antibody (mouse),"binding, yeast display flow cytometry",peptide,"concentration not given, added: 100 nM HPC4",,cells bound,96.5%
Nc1ncnc2c1ncn2[C@@H]1O[C@H](COP(=O)(O)OP(=O)(O)NP(=O)(O)O)[C@@H](O)[C@H]1O,native rod CNG channel,"ion current, inhibitor, patch clamp","Ambystoma tigrinum, rod outer segment patch, inside-out","500 µM, fully activated channels, added: genistein 100 µM",,genistein inhibition,decreased
O=S1(=O)C[C@@H](O)[C@H](O)CS1,"PDIA1, ERp44 and AGR2",,T47D cell extract,"100-fold excess, 2 h, added: biotinylated DDA",,binding competition,inhibited
VDPRL,HPC4 antibody (mouse),"binding, yeast display flow cytometry",peptide,"concentration not given, added: 100 nM HPC4",,cells bound,71.2%
O=C(O)Cc1cccc2c(=O)cc(-c3ccccc3)oc12,TBK1,"phosphorylation, inhibitor",THP-1,"up to 1 mM, 4 h, added: c-di-GMP",,activity,inactive
AAPSPLFVPGPLPQL,GPR15 Chrysemys picta,"intracellular calcium, agonist, Fluo-4 fluorescence","peptide, CHO transfected with GPR15",,,concentration for maximal response,100 nM
